Experimental data pooled from the literature.
Protocols differ between the studies behind these lines.
Medium: plasma

For `Cc1cc(/C=C2\CN(C(C)C)C/C(=C\c3cc(C)c(O)c(C)c3)C2=O)cc(C)c1O`, the MRT(0-t) was 2.95 h (female Sprague-Dawley rat; intravenous, 20 mg/kg).
For `Nc1nc(Cl)nc2c1ncn2Cc1cc(OCC(F)F)cc(OC(F)F)c1`, the MRT(0-t) was 13.4 h (Sprague-Dawley rat; oral, 5 mg/kg).
The MRT(0-inf) of `C#Cc1cccc(Nc2ncnc3cc(OC)c(OCCCN4CCOCC4)cc23)c1` is reported as 3.96 h (Sprague-Dawley rat; intravenous, 10 mg/kg).
The MRT(0-t) of `CSCOC1C(=O)C2(C)C(OCSC)CC3OCC3(OC(C)=O)C2C(OC(=O)c2ccccc2)C2(O)CC(OC(=O)C(O)C(C=C(C)C)NC(=O)OC(C)(C)C)C(C)=C1C2(C)C` (stereo not shown) is reported as 6 h (male Sprague-Dawley rat; intravenous, 4 mg/kg).
With `Cn1cc(-c2cc(N3CCCCS3(=O)=O)ccc2N[C@H]2CC[C@H](C)CC2)c2cc[nH]c2c1=O` (stereo in doubt) the MRT(0-inf) was 1.54 h (Sprague-Dawley rat; oral, 3 mg/kg).
`N#Cc1cnc2cc(OCC3CCNCC3)c(F)cc2c1Nc1cc(F)c(OCc2cccc(Cl)n2)cc1Cl` has an MRT of 8.8 h (male Sprague-Dawley rat; oral, 100 mg/kg).
`O=C(N[C@@H](CC1CCCCC1)C(=O)N[C@@H](C[C@H]1CCNC1=O)C(=O)C(=O)NC1CC1)OCc1cccc(Cl)c1` gave an MRT of 14.2 h (female Sprague-Dawley rat; oral, 10 mg/kg).
`N=C(N)NCCC[C@H](NC(=O)[C@@H]1CCCN1C(=O)[C@H](Cc1ccccc1)NC(=O)[C@@H]1CCCN1C(=O)[C@H](Cc1c[nH]cn1)NC(=O)[C@@H](N)Cc1ccccc1)C(=O)O` has an MRT of 0.344 h (male Sprague-Dawley rat; intravenous, 10 mg/kg).
`CNC(=O)N[C@]1(C)CCC[C@@]2(C)C3CC[C@@]4(C)C[C@]3(CCC21)CC4=O` (single isomer, unassigned) has an MRT(0-inf) of 1.68 h (male Sprague-Dawley rat; oral, 2 mg/kg).
With `CNc1cc(C(=O)Nc2ccc(Cl)cc2)ccc1OC` the MRT(0-t) was 1.9 h (male Sprague-Dawley rat; oral, 20 mg/kg, single dose).
`Cn1cc(-c2cc(N3CCCS3(=O)=O)ccc2N[C@H]2CC[C@H](C)CC2)c2cc[nH]c2c1=O` gave an MRT(0-inf) of 3.49 h (Sprague-Dawley rat; oral, 3 mg/kg).
The MRT(0-inf) of `CN1CCN(c2ccc(Nc3ncc(Cl)c(Nc4ccccc4P(C)(C)=O)n3)cc2Br)CC1` is reported as 22.8 h (male Sprague-Dawley rat; oral, 25 mg/kg).
`COc1cc(NC(C)=O)c2c(c1O)-c1c(OC)c(OC)cc3c1C(C2)N(C)CC3` (stereo not shown) gave an MRT(0-t) of 3.7 h (male Wistar rat; oral, 200 mg/kg).
`CCCN(c1ccc(C(=O)NCCC(=O)O)cc1)S(=O)(=O)c1cc(C)c(-c2ccc(C(C)(C)C)cc2)c(C)c1` gave an MRT of 0.263 h (rat; intravenous, 2 mg/kg).
For `CC(C)(C)C(=O)Nc1ccc2[nH]c(CN3CCC(N(CCCN4CCOCC4)CC4OC(n5cnc6c(N)ncnc65)C(O)C4O)CC3)nc2c1` (stereo not shown), the MRT was 1.75 h (male Sprague-Dawley rat; intraperitoneal, 20 mg/kg).
The MRT of `COC(=O)/C=C/C(=O)c1ccc(OC)cc1` is reported as 11.7 h (Sprague-Dawley rat; oral, 100 mg/kg).

Repeated from above:
With `Cn1cc(-c2cc(N3CCCCS3(=O)=O)ccc2N[C@H]2CC[C@H](C)CC2)c2cc[nH]c2c1=O` (stereo in doubt) the MRT(0-inf) was 1.54 h (Sprague-Dawley rat; oral, 3 mg/kg).
